# Literature values, collected from citations in different studies.
# Compare with care: the assays were run in different laboratories.
Substance,system,setting,how to read,endpoint,result
Cc1cc(-c2ccc(C(=O)[C@@H]3CCCC[C@H]3C(=O)Nc3cnn4c3C(=O)NCC4)cc2)n[nH]1,"human, non-Japanese","oral, 600 mg multiple doses, day 10, geometric mean",,Cmax,5.69 µM
CC(=O)O[C@@]12CO[C@@H]1C[C@H](O)[C@@]1(C)C(=O)[C@H](O)C3=C(C)[C@@H](OC(=O)[C@H](O)[C@@H](NC(=O)OC(C)(C)C)c4ccccc4)C[C@@](O)([C@@H](OC(=O)c4ccccc4)[C@H]21)C3(C)C,"human, plasma","concentration not given, total concentration",,Cmax,3.7 µM
CO[C@H]1C[C@@H]2CC[C@@H](C)[C@@](O)(O2)C(=O)C(=O)N2CCCC[C@H]2C(=O)O[C@H]([C@H](C)C[C@@H]2CC[C@@H](OCCO)[C@H](OC)C2)CC(=O)[C@H](C)/C=C(\C)[C@@H](O)[C@@H](OC)C(=O)[C@H](C)C[C@H](C)/C=C/C=C/C=C/1C,human,"2 mg single dose, with: ketoconazole 200 mg twice daily",baseline: with over without ketoconazole,Cmax ratio,3.9 fold
CNC(=O)c1cc(Oc2ccc(NC(=O)Nc3ccc(Cl)c(C(F)(F)F)c3)cc2)ccn1,"human, plasma","concentration not given, total concentration",,Cmax,6.2 µM
CCN1C(=O)N(c2c(F)c(OC)cc(OC)c2F)Cc2cnc3[nH]c(CN4CCOCC4)cc3c21,human cancer patients,"oral, 13.5 mg once daily, geometric mean",,Cmax at steady state,0.236 µM
CCCCC(CC)COC(=O)C(C#N)=C(c1ccccc1)c1ccccc1 (stereo not drawn),"human, plasma","topical, 2 mg/cm^2 to 75% body surface, day 1, sunscreen",,Cmax geometric mean,1.5 ng/mL
CC(C)NCC(O)c1ccc(O)c(O)c1 (stereo not drawn),"human, plasma","concentration not given, total concentration",,Cmax,0.0027 µM
CCCCC(CC)COC(=O)C=Cc1ccc(OC)cc1 (stereo not drawn),"human, plasma","topical, 4 times daily days 2-4, day 4, sunscreen",,Cmax geometric mean,7.9 ng/mL
COc1cccc(CCc2ccccc2OCC(CN(C)C)OC(=O)CCC(=O)O)c1 (racemic),human,"oral, 50 mg single dose as hydrochloride, geometric mean",,Cmax,269 ng/mL
CCCCCOC(=O)Nc1nc(=O)n([C@@H]2O[C@H](C)[C@@H](O)[C@H]2O)cc1F,"human, plasma","concentration not given, total concentration",,Cmax,9.7 µM
COc1cccc(-c2c(C)n(Cc3c(F)cccc3C(F)(F)F)c(=O)n(C[C@H](NCCCC(=O)O)c3ccccc3)c2=O)c1F,human,"150 mg single dose, with: rifampin 600 mg once daily, day 10",baseline: with rifampin over alone,Cmax ratio,2
octreotide,human,"oral, 20 mg capsule",baseline: fasting,Cmax reduction by high-fat meal,~90%

# A few entries again:
Substance,system,setting,how to read,endpoint,result
COc1cccc(CCc2ccccc2OCC(CN(C)C)OC(=O)CCC(=O)O)c1 (racemic),human,"oral, 50 mg single dose as hydrochloride, geometric mean",,Cmax,269 ng/mL
CCCCCOC(=O)Nc1nc(=O)n([C@@H]2O[C@H](C)[C@@H](O)[C@H]2O)cc1F,"human, plasma","concentration not given, total concentration",,Cmax,9.7 µM
